Published values from different studies.
Lines come from different studies, so protocols differ. “And” joins repeats or separate records; there may be more than shown. Numbers after ± are the reported error. Ends that are not written are not given here. The star is where a group is joined. * marks the point of attachment.
Gnao1: Gnao1, AlexaFluor 532 label (Rattus norvegicus, UniProt P59215)
UniProt P59215, sequence (whole entry, looked up): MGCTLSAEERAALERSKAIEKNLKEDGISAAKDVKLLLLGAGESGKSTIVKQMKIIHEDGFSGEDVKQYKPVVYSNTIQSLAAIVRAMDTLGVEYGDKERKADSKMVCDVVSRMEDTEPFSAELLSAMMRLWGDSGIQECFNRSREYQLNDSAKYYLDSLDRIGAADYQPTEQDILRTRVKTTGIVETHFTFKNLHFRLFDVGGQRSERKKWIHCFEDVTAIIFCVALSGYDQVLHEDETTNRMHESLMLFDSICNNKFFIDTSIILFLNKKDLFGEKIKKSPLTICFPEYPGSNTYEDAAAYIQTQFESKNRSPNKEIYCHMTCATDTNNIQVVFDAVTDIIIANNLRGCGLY
B1: UGT1A9 (Homo sapiens, UniProt O60656); chain GKLLVVPMDGSHWFTMRSVVEKLILRGHEVVVVMPEVSWQLGRSLNCTVKTYSTSYTLEDLDREFKAFAHAQWKAQVRSIYSLLMGSYNDIFDLFFSNCRSLFKDKKLVEYLKESSFDAVFLDPFDNCGLIVAKYFSLPSVVFARGILCHYLEEGAQCPAPLSYVPRILLGFSDAMTFKERVRNHIMHLEEHLLCHRFFKNALEIASEILQTPVTEYDLYSHTSIWLLRTDFVLDYPKPVMPNMIFIGGINCHQGKPLPMEFEAYINASGEHGIVVFSLGSMVSEIPEKKAMAIADALGKIPQTVLWRYTGTRPSNLANNTILVKWLPQNDLLGHPMTRAFITHAGSHGVYESICNGVPMVMMPLFGDQMDNAKRMETKGAGVTLNVLEMTSEDLENALKAVINDKSYKENIMRLSSLHKDRPVEPLDLAVFWVEFVMRHKGAPHLRPAAHDLTWYQYHSLDVIGFLLAVVLTVAFITFKCCAYGYRKCLGKKGRVKKAHKSKTH
B2: MIF4GD H44A (Homo sapiens, UniProt A9UHW6); sequence looked up; chain MGEPSREEYKIQSFDAETQQLLKTALKDPGAVDLEKVANVIVDASLQDCVFSKEAGRMCYAIIQAESKQAGQSVFRRGLLNRLQQEYQAREQLRARSLQGWVCYVTFICNIFDYLRVNNMPMMALVNPVYDCLFRLAQPDSLSKEEEVDCLVLQLHRVGEQLEKMNGQRMDELFVLIRDGFLLPTGLSSLAQLLLLEIIEFRAAGWKTTPAAHKYYYSEVSD
B3: Sas-4 606-901 (Drosophila melanogaster, UniProt Q9VI72); sequence looked up; chain RNIARLAPKVLPSATMSDILDENGRRTQSLDGTAGKPAKQREAQNRRQSSGSAQVRSRSRSLSRNKKTPYALDESYASSSSVESEEVQPPVTAPKAATPPPAANSSSDFKREITNADGSKDIWYPNGNLKKISADGMNLRMLYFNKDIKETNIREGTVKYYYAETNTWHTSYLDGLEILEFPNGQTEHRRKDGTVEIHFPNNSIKIVDPSDTEKLEEWRYADGTHLVQLRNGDKILNLPNGQKEIHTKLNKRREYPDGTVKLVYPDGSQETRYSNGRVRLKDKDGKLIMDTDYAKY
B4: RGS4 residues 52-end 52-205 del1-51 (UniProt P49799); sequence looked up; chain SQEEVKKWAESLENLINHECGLAAFKAFLKSEYSEENIDFWISCEEYKKIKSPSKLSPKAKKIYNEFISVQATKEVNLDSCTREETSRNMLEPTITCFDEAQKKIFNLMEKDSYRRFLKSRFYLDLTNPSSCGAEKQKGAKSSADCTSLVPQCA
B5: IL34 19-242 (Homo sapiens, UniProt Q6ZMJ4); sequence looked up; chain LGNEPLEMWPLTQNEECTVTGFLRDKLQYRSRLQYMKHYFPINYKISVPYEGVFRIANVTRLQRAQVSERELRYLWVLVSLSATESVQDVLLEGHPSWKYLQEVETLLLNVQQGLTDVEVSPKVESVLSLLNAPGPNLKLVRPKALLDNCFRVMELLYCSCCKQSSVLNWQDCEVPSPQSCSPEPSLQYAATQLYPPPPWSPSSPPHSTGSVRPVRAQGEGLLP
B6: LEMD3 755-911 (Homo sapiens, UniProt Q9Y2U8); sequence looked up; chain DKILVIPSKVWQGQAFHLDRRNSPPNSLTPCLKIRNMFDPVMEIGDQWHLAIQEAILEKCSDNDGIVHIAVDKNSREGCVYVKCLSPEYAGKAFKALHGSWFDGKLVTVKYLRLDRYHHRFPQALTSNTPLKPSNKHMNSMSHLRLRTGLTNSQGSS
B7: ftsZ (Bacillus subtilis, UniProt P17865); sequence looked up; chain MLEFETNIDGLASIKVIGVGGGGNNAVNRMIENEVQGVEYIAVNTDAQALNLSKAEVKMQIGAKLTRGLGAGANPEVGKKAAEESKEQIEEALKGADMVFVTAGMGGGTGTGAAPVIAQIAKDLGALTVGVVTRPFTFEGRKRQLQAAGGISAMKEAVDTLIVIPNDRILEIVDKNTPMLEAFREADNVLRQGVQGISDLIATPGLINLDFADVKTIMSNKGSALMGIGIATGENRAAEAAKKAISSPLLEAAIDGAQGVLMNITGGTNLSLYEVQEAADIVASASDQDVNMIFGSVINENLKDEIVVTVIATGFIEQEKDVTKPQRPSLNQSIKTHNQSVPKREPKREEPQQQNTVSRHTSQPADDTLDIPTFLRNRNKRG
B8: RGS16 (Homo sapiens, UniProt O15492); sequence looked up; chain MCRTLAAFPTTCLERAKEFKTRLGIFLHKSELGCDTGSTGKFEWGSKHSKENRNFSEDVLGWRESFDLLLSSKNGVAAFHAFLKTEFSEENLEFWLACEEFKKIRSATKLASRAHQIFEEFICSEAPKEVNIDHETHELTRMNLQTATATCFDAAQGKTRTLMEKDSYPRFLKSPAYRDLAAQASAASATLSSCSLDEPSHT
B9: dinB (Escherichia coli, UniProt Q47155); sequence looked up; chain MRKIIHVDMDCFFAAVEMRDNPALRDIPIAIGGSRERRGVISTANYPARKFGVRSAMPTGMALKLCPHLTLLPGRFDAYKEASNHIREIFSRYTSRIEPLSLDEAYLDVTDSVHCHGSATLIAQEIRQTIFNELQLTASAGVAPVKFLAKIASDMNKPNGQFVITPAEVPAFLQTLPLAKIPGVGKVSAAKLEAMGLRTCGDVQKCDLVMLLKRFGKFGRILWERSQGIDERDVNSERLRKSVGVERTMAEDIHHWSECEAIIERLYPELERRLAKVKPDLLIARQGVKLKFDDFQQTTQEHVWPRLNKADLIATARKTWDERRGGRGVRLVGLHVTLLDPQMERQLVLGL
B10: TJP1 PDZ3-SH3-GuK; chain SMKLVKFRKGDSVGLRLAGGNDVGIFVAGVLEDSPAAKEGLEEGDQILRVNNVDFTNIIREEAVLFLLDLPKGEEVTILAQKKKDVYRRIVESDVGDSFYIRTHFEYEKESPYGLSFNKGEVFRVVDTLYNGKLGSWLAIRIGKNHKEVERGIIPNKNRAEQLASVQYTLPKTAGGDRADFWRFRGLRSSKRNLRKSREDLSAQPVQTKFPAYERVVLREAGFLRPVTIFGPIADVAREKLAREEPDIYQIAKSEPRDAGTDQRSSGIIRLHTIKQIIDQDKHALLDVTPNAVDRLNYAQWYPIVVFLNPDSKQGVKTMRMRLCPESRKSARKLYERSHKLRKNNHHLFTTTINLNSMN
B11: Scn2a 1080-1203 (UniProt P04775); CK2-phosphorylated; sequence looked up; chain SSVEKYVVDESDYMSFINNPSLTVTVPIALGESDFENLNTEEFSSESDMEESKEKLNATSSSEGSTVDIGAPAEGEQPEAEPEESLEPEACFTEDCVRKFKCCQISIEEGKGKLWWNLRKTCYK
UniProt Q15796, sequence (whole entry, looked up): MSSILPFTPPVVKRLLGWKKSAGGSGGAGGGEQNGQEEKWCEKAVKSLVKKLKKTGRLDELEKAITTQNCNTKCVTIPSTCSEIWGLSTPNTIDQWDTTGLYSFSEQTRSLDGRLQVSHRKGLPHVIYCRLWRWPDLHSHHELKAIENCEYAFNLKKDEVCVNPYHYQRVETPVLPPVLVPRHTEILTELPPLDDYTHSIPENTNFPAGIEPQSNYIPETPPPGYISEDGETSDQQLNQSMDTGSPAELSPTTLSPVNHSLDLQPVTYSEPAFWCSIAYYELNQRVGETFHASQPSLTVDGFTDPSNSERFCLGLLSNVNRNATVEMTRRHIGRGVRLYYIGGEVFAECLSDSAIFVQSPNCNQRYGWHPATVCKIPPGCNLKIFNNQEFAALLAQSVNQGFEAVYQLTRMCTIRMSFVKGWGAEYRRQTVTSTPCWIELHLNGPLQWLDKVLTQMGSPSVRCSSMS
UniProt P54166, sequence (whole entry, unmodified, looked up): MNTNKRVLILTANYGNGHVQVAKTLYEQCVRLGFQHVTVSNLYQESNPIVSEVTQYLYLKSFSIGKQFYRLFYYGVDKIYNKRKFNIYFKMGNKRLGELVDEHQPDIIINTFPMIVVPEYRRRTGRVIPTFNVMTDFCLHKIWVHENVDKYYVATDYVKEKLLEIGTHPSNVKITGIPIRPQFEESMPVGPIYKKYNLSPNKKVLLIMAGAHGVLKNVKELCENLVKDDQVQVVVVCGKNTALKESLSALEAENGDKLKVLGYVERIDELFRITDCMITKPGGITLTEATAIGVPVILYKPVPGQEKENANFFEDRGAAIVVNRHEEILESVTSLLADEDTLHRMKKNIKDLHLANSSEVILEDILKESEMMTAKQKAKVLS
UniProt O70511, sequence (whole entry, looked up): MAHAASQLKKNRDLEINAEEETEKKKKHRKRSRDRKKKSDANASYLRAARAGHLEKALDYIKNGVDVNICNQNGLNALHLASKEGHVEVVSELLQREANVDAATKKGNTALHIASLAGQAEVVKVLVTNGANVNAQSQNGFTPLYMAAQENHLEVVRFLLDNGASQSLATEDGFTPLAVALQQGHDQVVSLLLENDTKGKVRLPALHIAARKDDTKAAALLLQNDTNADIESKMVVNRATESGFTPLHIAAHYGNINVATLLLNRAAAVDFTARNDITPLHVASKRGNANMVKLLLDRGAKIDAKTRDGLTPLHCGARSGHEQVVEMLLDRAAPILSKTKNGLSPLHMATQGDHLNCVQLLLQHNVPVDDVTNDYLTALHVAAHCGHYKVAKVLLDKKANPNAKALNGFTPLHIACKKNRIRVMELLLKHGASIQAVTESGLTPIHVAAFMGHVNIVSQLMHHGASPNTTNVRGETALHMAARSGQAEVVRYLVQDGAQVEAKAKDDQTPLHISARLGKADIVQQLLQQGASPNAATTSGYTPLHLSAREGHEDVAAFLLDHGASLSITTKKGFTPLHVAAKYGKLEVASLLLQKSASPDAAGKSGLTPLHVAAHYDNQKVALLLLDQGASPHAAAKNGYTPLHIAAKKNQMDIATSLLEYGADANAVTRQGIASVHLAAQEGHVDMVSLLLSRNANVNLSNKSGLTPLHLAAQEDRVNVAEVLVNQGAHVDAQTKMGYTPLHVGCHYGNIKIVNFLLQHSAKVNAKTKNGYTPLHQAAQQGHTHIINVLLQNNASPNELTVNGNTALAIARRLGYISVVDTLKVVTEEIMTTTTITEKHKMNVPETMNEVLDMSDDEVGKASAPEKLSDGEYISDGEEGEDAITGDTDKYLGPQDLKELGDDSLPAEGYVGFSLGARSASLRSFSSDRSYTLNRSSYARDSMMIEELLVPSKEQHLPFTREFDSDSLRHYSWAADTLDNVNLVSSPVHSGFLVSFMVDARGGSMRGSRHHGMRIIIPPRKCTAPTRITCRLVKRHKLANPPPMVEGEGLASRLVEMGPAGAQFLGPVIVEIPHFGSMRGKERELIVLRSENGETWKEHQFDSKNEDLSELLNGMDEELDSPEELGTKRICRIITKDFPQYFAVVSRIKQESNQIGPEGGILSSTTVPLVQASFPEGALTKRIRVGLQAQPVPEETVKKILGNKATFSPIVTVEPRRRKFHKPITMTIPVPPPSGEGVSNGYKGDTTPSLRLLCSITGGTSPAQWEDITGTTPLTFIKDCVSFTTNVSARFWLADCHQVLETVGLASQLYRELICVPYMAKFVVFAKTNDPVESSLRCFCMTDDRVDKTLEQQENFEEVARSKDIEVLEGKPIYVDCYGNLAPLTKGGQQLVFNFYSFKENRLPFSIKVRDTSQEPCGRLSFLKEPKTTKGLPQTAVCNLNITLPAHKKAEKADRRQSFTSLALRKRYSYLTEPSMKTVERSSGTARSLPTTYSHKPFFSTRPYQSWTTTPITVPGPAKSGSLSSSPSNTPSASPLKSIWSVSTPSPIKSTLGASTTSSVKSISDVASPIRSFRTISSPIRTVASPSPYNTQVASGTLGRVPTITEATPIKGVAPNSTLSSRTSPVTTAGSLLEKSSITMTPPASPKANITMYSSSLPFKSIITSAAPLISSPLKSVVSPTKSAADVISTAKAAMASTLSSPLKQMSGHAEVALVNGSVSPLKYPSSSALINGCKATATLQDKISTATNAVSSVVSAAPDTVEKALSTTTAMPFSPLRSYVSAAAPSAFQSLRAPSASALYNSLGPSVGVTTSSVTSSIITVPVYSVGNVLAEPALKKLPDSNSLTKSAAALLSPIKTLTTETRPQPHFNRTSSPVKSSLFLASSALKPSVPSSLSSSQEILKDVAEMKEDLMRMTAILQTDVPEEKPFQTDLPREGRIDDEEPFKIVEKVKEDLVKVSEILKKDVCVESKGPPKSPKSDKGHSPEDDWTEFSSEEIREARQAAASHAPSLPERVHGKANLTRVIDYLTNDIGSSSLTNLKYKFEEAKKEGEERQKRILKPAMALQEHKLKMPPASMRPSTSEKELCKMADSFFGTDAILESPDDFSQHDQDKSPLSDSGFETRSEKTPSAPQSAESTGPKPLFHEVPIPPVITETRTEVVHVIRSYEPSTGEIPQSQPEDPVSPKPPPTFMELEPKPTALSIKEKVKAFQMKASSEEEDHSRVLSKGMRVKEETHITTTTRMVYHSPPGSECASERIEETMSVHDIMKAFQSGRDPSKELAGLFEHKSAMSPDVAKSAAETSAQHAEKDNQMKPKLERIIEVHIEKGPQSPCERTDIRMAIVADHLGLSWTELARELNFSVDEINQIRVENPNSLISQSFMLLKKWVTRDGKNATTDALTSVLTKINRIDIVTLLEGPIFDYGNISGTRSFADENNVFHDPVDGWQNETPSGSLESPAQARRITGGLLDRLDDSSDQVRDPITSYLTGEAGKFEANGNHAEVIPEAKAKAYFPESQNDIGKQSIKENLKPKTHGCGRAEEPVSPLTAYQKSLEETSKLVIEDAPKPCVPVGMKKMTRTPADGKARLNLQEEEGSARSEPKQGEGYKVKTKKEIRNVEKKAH
UniProt P0A988, sequence (whole entry, unmodified, looked up): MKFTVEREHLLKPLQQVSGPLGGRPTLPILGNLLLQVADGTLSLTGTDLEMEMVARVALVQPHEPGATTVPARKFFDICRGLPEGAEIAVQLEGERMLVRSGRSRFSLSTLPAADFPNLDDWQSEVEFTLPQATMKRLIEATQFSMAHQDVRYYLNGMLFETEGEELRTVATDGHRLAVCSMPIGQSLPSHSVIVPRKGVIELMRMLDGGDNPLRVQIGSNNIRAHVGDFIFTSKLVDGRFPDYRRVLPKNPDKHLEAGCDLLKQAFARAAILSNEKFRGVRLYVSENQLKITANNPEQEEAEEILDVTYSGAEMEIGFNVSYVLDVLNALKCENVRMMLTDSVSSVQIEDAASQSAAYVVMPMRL
UniProt P04631, sequence (whole entry, looked up): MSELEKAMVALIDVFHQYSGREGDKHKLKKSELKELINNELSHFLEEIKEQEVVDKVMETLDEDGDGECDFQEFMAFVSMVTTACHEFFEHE

Molecule | tested on | assay | system | setting | endpoint | value
YGIGVGW |  |  | peptide, human polyclonal IgM RF SOR | concentration not given, 5 µg/mL mAb II-481 coated, added: RF at 50% max binding concentration | inhibition | 40%
B1 (UGT1A9) | CCCOc1ccc(O)cc1 | steady-state kinetics |  | pH 7.4, 37 °C | Vmax/Km | 10 µL/min/mg
{TAMRA}-TRTKIDWNKILS-NH2 (CAPZA1 residues 265-276; SMILES CC[C@H](C)[C@H](NC(=O)[C@H](CCCCN)NC(=O)[C@H](CC(N)=O)NC(=O)[C@H](Cc1c[nH]c2ccccc12)NC(=O)[C@H](CC(=O)O)NC(=O)[C@@H](NC(=O)[C@H](CCCCN)NC(=O)[C@@H](NC(=O)[C@H](CCCNC(=N)N)NC(=O)[C@@H](NC(=O)c1ccc(-c2c3ccc(=[N+](C)C)cc-3oc3cc(N(C)C)ccc23)c(C(=O)[O-])c1)[C@@H](C)O)[C@@H](C)O)[C@@H](C)CC)C(=O)N[C@@H](CC(C)C)C(=O)N[C@@H](CO)C(N)=O; N-terminal TAMRA; C-terminal amide; TAMRA = 5-carboxytetramethylrhodamine, CN(C)c1ccc2c(-c3ccc(C(=O)*)cc3C(=O)[O-])c3ccc(=[N+](C)C)cc-3oc2c1) | S100b (Rattus norvegicus, UniProt P04631) | fluorescence polarisation | peptide | 37 °C, added: CaCl2 10 mM | Kd | 1.19 ± 0.65 µM
B2 (MIF4GD H44A) | SLBP, phosphorylated, multiple sites (Homo sapiens, UniProt Q14493) | SPR |  | pH 7.4, 25 °C, NaCl 150 mM | Kd | 15.6 ± 5.4 µM
B3 (Sas-4 606-901) | ana2 S38A, Plk4 phosphorylated (Drosophila melanogaster, UniProt Q9XZ31) | BLI |  | approximate, prephosphorylated, single experiment | Kd | 0.028 µM
B4 | Gnao1 | flow cytometry |  | pH 8.0, added: GDP-AlF4- | Kd | 0.091 µM
B5 (IL34 19-242) | CSF1R Fc fusion D1-D5 20-512 (Homo sapiens, UniProt P07333) | SPR |  | pH 7.4, NaCl 0.15 M | Kd | 0.0081 µM
KAR9 50-residue Site2 peptide (Saccharomyces cerevisiae) | BIM1 194-344 (Saccharomyces cerevisiae, UniProt P40013) | ITC |  | pH 7.5, 25 °C, NaCl 150 mM | Kd | 0.12 µM
CDKN1A/POLB p21 peptide with POLB PIP-box, C-terminal amide (Homo sapiens) | PCNA (Homo sapiens, UniProt P12004) | SPR |  |  | Kd | 5.73 µM
5FAM-ARRGKKKSGCLVL (RHOA residues 181-193 (Homo sapiens); N-terminal 5-FAM; 5FAM = O=C1OC2(c3ccc(O)cc3Oc3cc(O)ccc32)c2ccc(C(=O)*)cc21) | RAP1GDS1 (Homo sapiens, UniProt P52306-2) | fluorescence polarization | peptide |  | Kd | 8.1 ± 1.5 µM
B6 (LEMD3 755-911) | SMAD2 186-467 S-to-E phosphomimetic (Homo sapiens, UniProt Q15796) | ITC |  | 20 °C | Kd | 1.4 µM and 1.27 µM
LDRQEEEEALQDQKRREEELGRIMVNAFDDLLDEENTIDS (asl 21-60 (Drosophila melanogaster, UniProt Q9VNE4); sequence looked up) | Plk4 cryptic polo box 383-601, lysine methylated, RED-NHS label (Drosophila, UniProt O97143) | MST |  |  | Kd | 0.88 µM
B7 (ftsZ) | UgtP F112A/V117A/E306A/N309A (Bacillus subtilis, UniProt P54166) | BLI |  | pH 8.0, 30 °C, NaCl 100 mM, with UDP-glc, added: UDP-glc | Kd | 0.02 µM
SQSVLYS |  |  | peptide, human polyclonal IgM RF STR | concentration not given, 5 µg/mL mAb II-481 coated, added: RF at 50% max binding concentration | inhibition | 0%
B8 (RGS16) | Gnao1 | flow cytometry |  | added: GDP-AlF4- | Kd | 0.054 µM
B9 (dinB) | dnaN 1-366 148-152 to poly-Ala (Escherichia coli, UniProt P0A988) | SPR |  | pH 7.4, NaCl 150 mM | Kd | 0.68 µM
KELVALTPPSPFRD (Grm5) | Homer1 (Rattus norvegicus, UniProt Q9Z214) | ITC | peptide |  | Kd | 15.8 ± 1.6 µM
B10 (TJP1 PDZ3-SH3-GuK) | OCLN 383-522 S408D, fluorescent label (Homo sapiens, UniProt Q16625) | MST |  |  | Kd | 5.8 ± 0.2 µM
B11 (Scn2a 1080-1203) | Ank3 1-981 (Rattus norvegicus, UniProt O70511) | SPR |  | pH 7.4, 25 °C, NaCl 150 mM | Kd | 0.0009 µM

For quick reference, copied from above:
Molecule | tested on | assay | system | setting | endpoint | value
B3 (Sas-4 606-901) | ana2 S38A, Plk4 phosphorylated (Drosophila melanogaster, UniProt Q9XZ31) | BLI |  | approximate, prephosphorylated, single experiment | Kd | 0.028 µM
SQSVLYS |  |  | peptide, human polyclonal IgM RF STR | concentration not given, 5 µg/mL mAb II-481 coated, added: RF at 50% max binding concentration | inhibition | 0%
KAR9 50-residue Site2 peptide (Saccharomyces cerevisiae) | BIM1 194-344 (Saccharomyces cerevisiae, UniProt P40013) | ITC |  | pH 7.5, 25 °C, NaCl 150 mM | Kd | 0.12 µM
